Measurements pooled from the literature.
Lines come from different studies, so protocols differ. Numbers after ± are the reported error.
Drd3: D(3) dopamine receptor (Drd3, Rattus norvegicus, UniProt P19020)
Chain of UniProt P19020 (whole entry, looked up): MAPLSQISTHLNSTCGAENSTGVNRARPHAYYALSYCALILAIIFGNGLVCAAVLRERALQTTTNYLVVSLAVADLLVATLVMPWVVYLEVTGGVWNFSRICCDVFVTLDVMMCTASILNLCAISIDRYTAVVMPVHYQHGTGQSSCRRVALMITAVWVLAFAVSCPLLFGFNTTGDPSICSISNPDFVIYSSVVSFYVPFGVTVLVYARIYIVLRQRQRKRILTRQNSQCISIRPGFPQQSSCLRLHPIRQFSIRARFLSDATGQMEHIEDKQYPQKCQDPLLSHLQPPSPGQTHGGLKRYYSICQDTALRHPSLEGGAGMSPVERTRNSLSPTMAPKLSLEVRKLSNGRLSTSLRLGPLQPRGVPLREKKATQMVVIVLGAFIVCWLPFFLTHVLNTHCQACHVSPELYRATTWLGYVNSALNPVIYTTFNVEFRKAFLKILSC
HCRTR1: Orexin/Hypocretin receptor type 1 (HCRTR1, Homo sapiens, UniProt O43613)
Chain of UniProt O43613 (whole entry, looked up): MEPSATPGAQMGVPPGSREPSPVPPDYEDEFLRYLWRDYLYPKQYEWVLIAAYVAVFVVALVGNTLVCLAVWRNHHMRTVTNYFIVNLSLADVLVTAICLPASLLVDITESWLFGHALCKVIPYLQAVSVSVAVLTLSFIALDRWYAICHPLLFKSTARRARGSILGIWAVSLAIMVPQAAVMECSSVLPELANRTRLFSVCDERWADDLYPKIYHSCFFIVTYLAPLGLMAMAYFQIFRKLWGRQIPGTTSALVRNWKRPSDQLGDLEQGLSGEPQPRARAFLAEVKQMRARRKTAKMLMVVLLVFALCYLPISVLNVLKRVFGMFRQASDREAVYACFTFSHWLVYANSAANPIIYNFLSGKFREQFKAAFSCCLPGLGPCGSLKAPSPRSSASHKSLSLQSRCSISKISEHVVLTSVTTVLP
Cnr1: Cannabinoid receptor 1 (Cnr1, Rattus norvegicus, UniProt P20272)
Chain of UniProt P20272 (whole entry, looked up): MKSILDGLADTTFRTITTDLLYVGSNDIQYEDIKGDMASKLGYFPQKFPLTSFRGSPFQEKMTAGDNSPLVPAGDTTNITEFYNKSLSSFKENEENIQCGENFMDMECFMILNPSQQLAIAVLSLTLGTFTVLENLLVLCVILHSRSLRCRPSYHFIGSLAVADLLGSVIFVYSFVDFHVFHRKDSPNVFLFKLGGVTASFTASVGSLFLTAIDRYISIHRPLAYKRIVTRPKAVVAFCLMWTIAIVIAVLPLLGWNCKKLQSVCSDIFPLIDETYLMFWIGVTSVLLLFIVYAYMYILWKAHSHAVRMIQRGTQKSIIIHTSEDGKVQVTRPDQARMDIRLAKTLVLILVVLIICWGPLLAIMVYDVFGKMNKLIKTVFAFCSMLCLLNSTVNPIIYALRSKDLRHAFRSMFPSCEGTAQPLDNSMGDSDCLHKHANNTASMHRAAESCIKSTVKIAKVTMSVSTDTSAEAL
HRH1: Histamine H1 receptor (HRH1, Homo sapiens, UniProt P35367)
Chain of UniProt P35367 (whole entry, looked up): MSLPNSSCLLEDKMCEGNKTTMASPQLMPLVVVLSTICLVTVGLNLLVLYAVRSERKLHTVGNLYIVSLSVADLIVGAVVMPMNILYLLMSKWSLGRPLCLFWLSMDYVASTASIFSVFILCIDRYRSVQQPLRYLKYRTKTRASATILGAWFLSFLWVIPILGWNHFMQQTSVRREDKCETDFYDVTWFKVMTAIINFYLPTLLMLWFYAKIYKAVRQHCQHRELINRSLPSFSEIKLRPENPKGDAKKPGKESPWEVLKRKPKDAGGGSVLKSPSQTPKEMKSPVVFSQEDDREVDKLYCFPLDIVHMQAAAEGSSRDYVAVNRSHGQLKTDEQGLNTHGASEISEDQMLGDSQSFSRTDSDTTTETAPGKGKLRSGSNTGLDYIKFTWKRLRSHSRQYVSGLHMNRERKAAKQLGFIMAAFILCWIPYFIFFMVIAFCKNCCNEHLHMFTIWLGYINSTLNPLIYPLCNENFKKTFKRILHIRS
Chain of UniProt P21462 (whole entry, looked up): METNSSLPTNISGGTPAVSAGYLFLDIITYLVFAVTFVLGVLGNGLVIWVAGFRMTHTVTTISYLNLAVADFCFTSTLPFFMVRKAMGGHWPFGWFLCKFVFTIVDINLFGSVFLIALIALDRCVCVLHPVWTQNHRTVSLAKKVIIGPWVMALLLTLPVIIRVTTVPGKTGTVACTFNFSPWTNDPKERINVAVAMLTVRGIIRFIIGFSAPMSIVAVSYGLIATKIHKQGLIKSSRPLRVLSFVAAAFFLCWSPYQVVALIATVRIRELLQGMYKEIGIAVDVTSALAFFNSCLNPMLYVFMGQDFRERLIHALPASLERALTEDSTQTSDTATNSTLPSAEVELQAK
Chain of UniProt Q12884 (whole entry, looked up): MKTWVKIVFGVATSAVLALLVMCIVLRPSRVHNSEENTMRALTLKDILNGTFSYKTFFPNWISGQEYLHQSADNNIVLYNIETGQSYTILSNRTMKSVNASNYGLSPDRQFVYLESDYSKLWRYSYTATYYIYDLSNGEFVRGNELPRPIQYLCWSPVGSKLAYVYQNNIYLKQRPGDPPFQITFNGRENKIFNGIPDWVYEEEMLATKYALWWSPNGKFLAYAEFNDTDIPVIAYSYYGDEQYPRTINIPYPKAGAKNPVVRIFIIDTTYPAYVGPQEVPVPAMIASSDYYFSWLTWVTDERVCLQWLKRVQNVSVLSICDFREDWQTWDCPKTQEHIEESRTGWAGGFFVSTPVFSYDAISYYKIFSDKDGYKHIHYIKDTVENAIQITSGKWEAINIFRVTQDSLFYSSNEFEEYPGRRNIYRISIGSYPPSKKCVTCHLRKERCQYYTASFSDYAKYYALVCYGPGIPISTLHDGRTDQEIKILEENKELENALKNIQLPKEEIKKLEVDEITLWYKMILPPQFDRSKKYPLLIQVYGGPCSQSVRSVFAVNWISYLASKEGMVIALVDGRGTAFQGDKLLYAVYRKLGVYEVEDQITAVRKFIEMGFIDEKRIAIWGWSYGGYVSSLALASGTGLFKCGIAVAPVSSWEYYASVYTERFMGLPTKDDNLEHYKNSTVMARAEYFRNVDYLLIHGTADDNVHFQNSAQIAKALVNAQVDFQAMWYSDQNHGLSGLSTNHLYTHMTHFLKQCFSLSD
Chain of UniProt P47900 (whole entry, looked up): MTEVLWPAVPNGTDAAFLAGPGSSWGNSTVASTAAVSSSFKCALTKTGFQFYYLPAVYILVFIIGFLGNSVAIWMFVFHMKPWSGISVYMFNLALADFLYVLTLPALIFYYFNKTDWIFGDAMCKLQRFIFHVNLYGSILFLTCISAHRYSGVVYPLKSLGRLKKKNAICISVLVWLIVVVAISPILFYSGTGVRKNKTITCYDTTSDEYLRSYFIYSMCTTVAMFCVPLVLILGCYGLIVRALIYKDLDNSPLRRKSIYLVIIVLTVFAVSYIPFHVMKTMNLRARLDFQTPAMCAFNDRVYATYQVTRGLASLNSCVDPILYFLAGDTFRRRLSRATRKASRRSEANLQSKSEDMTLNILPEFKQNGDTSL
Chain of UniProt Q9QXU1 (whole entry, looked up): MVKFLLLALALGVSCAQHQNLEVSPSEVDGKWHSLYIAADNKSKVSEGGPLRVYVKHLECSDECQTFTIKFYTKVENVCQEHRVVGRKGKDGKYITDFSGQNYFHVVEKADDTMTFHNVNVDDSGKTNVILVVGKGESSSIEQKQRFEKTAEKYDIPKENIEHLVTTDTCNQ
Chain of UniProt P27695 (whole entry, looked up): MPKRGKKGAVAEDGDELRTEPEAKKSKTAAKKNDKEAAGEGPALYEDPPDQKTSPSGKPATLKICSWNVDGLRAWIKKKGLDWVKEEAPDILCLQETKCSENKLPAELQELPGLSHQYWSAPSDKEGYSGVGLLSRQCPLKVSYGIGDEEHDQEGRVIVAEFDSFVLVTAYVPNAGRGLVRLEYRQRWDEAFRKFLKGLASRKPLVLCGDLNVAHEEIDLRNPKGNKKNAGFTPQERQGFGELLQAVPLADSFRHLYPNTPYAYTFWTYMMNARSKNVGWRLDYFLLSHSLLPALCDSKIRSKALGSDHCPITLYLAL
Chain of UniProt Q60492 (whole entry, looked up): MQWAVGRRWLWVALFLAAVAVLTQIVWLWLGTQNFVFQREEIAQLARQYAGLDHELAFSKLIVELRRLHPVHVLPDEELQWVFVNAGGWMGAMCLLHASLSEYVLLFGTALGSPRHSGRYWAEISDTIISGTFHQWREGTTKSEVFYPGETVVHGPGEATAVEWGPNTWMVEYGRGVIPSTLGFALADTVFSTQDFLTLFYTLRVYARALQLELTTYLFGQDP
Chain of UniProt O75469 (whole entry, looked up): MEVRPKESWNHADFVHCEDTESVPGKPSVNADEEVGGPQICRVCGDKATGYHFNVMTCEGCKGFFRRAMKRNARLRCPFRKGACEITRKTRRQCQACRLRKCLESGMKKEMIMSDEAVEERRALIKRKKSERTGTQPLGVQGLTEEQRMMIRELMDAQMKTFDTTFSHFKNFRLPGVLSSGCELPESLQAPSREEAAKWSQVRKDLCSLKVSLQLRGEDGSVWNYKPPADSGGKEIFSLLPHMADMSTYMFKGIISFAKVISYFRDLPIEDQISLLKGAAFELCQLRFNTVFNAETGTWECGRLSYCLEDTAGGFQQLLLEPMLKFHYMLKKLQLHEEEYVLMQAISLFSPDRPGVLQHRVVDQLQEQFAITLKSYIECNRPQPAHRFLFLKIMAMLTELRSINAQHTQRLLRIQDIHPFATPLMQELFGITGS
Chain of UniProt Q16539 (whole entry, looked up): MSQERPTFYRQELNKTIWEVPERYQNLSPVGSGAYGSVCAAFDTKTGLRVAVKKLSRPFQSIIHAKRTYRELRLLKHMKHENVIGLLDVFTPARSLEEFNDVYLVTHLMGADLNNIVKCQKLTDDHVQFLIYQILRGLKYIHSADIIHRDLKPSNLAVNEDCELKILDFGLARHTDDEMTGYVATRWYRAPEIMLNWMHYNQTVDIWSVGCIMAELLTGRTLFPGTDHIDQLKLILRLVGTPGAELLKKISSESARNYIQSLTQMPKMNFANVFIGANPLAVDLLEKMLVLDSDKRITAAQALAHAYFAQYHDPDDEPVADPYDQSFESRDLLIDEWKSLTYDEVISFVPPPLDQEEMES

CCCN(CCN1CCN(c2ccc(-c3ccncc3)cc2)CC1)C1CCc2ccc(O)cc2C1 (single isomer, unassigned; (+))
Ki (Drd3; ligand displacement, radioligand; cell membranes): 0.78 nM

CCCN(CCC1(O)CC(NC(=O)c2ccc(-c3noc(C)n3)cc2)C1)[C@H]1CCc2nc(N)sc2C1 (stereo in doubt)
Ki (dopamine D1-like receptor, rat; radioligand binding; rat striatal membranes; together with: [3H]SCH23390): 19200 ± 2550 nM

COc1cc2c(cc1OC)C(C(C)c1ccccc1)N(CC(=O)NCc1ccccc1)CC2 (centres unmarked)
Kb (HCRTR1; calcium signal, antagonist, fluorescence): > 10000 nM

O=C(/C=C/C=C/c1ccc2c(c1)OCO2)N1CCCCC1
EC50 (NR1I2 (Homo sapiens, UniProt O75469); reporter gene, agonist, luciferase; LS174T; 24 h): 1700 nM

CCOC(=O)C1=CC(C)(C(=O)c2ccccc2)CCC1=O (centres unmarked)
Ki (MAPK14 (Homo sapiens, UniProt Q16539); ligand displacement, FP): 10900 nM

CC(C)[C@H](NC(=O)[C@H](CCC(N)=O)NC(=O)[C@H](CCC(=O)O)NC(=O)[C@H](CCC(N)=O)NC(=O)[C@H](CC(N)=O)NC(=O)[C@@H]1CCCCN1C(=O)CNC(=O)COCCOCCNC(=O)CNC(=O)[C@@H](N)Cc1ccccc1)C(=O)O
Ki (FAP (Homo sapiens, UniProt Q12884); enzyme activity, inhibitor, fluorescence; pH 7.5): 57100 nM

C/C(=N\Nc1cc(C)nc2cc3c(cc12)OCO3)c1cn(C)n(-c2ccccc2)c1=O
Ki (APEX1 (Homo sapiens, UniProt P27695); enzyme activity, inhibitor): 180 nM

Cc1c(/N=N/c2ccccc2)nn(-c2ccc(Cl)cc2Cl)c1-c1ccc(Cl)cc1
Ki (Cnr1; radioligand binding; rat brain membranes; trans isomer, 454 nm light, together with: [3H]CP55940 0.6 nM): 538 ± 66 nM

CC12CCC(CC1)C(C)(C)O2
Ki (Male-specific submandibular salivary gland protein (MSP, Mesocricetus auratus, UniProt Q9QXU1); binding, fluorescence displacement; together with: 1-AMA 2 µM): 310 nM

N=C(N)NCCCCNC(=N)NCCCc1c[nH]cn1
Ki (HRH1; ligand displacement, radioligand; cell membranes): > 31600 nM

CNc1nc(C#CCCCC(=O)NCCN)nc2c1ncn2[C@H]1C[C@H](OP(=O)(O)O)[C@]2(COP(=O)(O)O)C[C@H]12
Ki (P2Y purinoceptor 1 (P2RY1, Homo sapiens, UniProt P47900); ligand displacement, radioligand; cell membranes): 1150 nM

CCCN(CCC1(O)CC(NC(=O)c2ccccc2F)C1)[C@H]1CCc2nc(N)sc2C1 (stereo in doubt)
Ki (Drd3; ligand displacement, radioligand; cell membranes): 0.46 nM

N=C(NCCCCCCN)NCCCc1c[nH]cn1
Ki (HRH1; ligand displacement, radioligand; cell membranes): > 10000 nM

CCCN(CCC1(O)CC(NC(=O)c2ccc(F)c(Cl)c2)C1)[C@H]1CCc2nc(N)sc2C1 (stereo in doubt)
Ki (Drd3; ligand displacement, radioligand; cell membranes): 0.43 nM

O=C(c1ccc(SCCF)cc1)C1CCN(C2Cc3ccccc3CC2O)CC1 (racemic)
Ki (SIGMAR1 (Cavia porcellus, UniProt Q60492); ligand displacement, radioligand): 16.7 nM

COCCN1C(=O)C(O)=C(C(=O)c2ccccc2)C1c1cc(OC)ccc1OC (centres unmarked)
Ki (FPR1 (Homo sapiens, UniProt P21462); ligand displacement in cells): < 2000 nM

CCCN(CCC1(O)CC(NC(=O)c2ccc(OC)cc2)C1)[C@H]1CCc2nc(N)sc2C1 (stereo in doubt)
Ki (dopamine D1-like receptor, rat; radioligand binding; rat striatal membranes; together with: [3H]SCH23390): 42800 ± 3280 nM

Cc1ccccc1/N=N/c1c(C)c(C(=O)NN2CCCCC2)nn1-c1ccc(Cl)cc1Cl
Ki (Cnr1; radioligand binding; rat brain membranes; trans isomer, 454 nm light, together with: [3H]CP55940 0.6 nM): 294 ± 66 nM

CCCN(CC[C@]1(O)C[C@@H](NC(=O)c2cccc(-c3noc(C)n3)c2)C1)[C@H]1CCc2nc(N)sc2C1 (relative stereo)
Ki (Drd3; ligand displacement, radioligand; cell membranes): 0.53 nM

COc1cc2c(cc1OC)C(Cc1cccc(N)c1)N(CC(=O)NCc1ccccc1)CC2 (centres unmarked)
Kb (HCRTR1; calcium signal, antagonist, fluorescence): 1310 nM

A few entries again:
N=C(N)NCCCCNC(=N)NCCCc1c[nH]cn1
Ki (HRH1; ligand displacement, radioligand; cell membranes): > 31600 nM

CCCN(CCC1(O)CC(NC(=O)c2ccccc2F)C1)[C@H]1CCc2nc(N)sc2C1 (stereo in doubt)
Ki (Drd3; ligand displacement, radioligand; cell membranes): 0.46 nM

O=C(/C=C/C=C/c1ccc2c(c1)OCO2)N1CCCCC1
EC50 (NR1I2 (Homo sapiens, UniProt O75469); reporter gene, agonist, luciferase; LS174T; 24 h): 1700 nM
